Experimental data from different studies.
Each numbered part is a random draw from the data of one study; scales do not carry over between parts. Changes are numbered by the printed parent chain.

Sample 1
Target: UBE2D2 UBC core domain (UniProt P62837)
Chain of UniProt P62837 (whole entry, looked up): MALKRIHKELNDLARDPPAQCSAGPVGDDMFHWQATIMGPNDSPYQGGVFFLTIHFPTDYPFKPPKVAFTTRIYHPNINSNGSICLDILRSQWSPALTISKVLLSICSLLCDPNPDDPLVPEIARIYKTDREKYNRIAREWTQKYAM
Method: yeast two-hybrid
Matrix: yeast
Notes: mostly zero background
Relative to: not given
Reading: higher = stronger interaction
B1: RNF135 RING domain (UniProt Q8IUD6); chain PVWLAEDDLGCIICQGLLDWPATLPCGHSFCRHCLEALWGARDARRWACPTCRQGAAQQPHLR
B2: PRKN RING domain (UniProt O60260); chain LIATNSRNITCITCTDVRSPVLVFQCNSRHVICLDCFHLYCVTRLNDRQFVHDPQLGYSLPCVAGCPNSLIKELHH
B3: TRIM22 RING domain (UniProt Q8IYM9); chain KEVKMSPQEGQKRDVCEHHGKKLQIFCKEDGKVICWVCELSQEHQGHQTFRINEVVKECQEK
Molecule | lacZ reporter activity
B1 (RNF135 RING domain) | 0
B2 (PRKN RING domain) | 0
B3 (TRIM22 RING domain) | 0

Sample 2
Target: RING finger protein unkempt homolog, zinc fingers 1-6, GST-SBP tag (UNK, Homo sapiens, UniProt Q9C0B0, residues 30-357)
Chain of UniProt Q9C0B0 (30-357, looked up): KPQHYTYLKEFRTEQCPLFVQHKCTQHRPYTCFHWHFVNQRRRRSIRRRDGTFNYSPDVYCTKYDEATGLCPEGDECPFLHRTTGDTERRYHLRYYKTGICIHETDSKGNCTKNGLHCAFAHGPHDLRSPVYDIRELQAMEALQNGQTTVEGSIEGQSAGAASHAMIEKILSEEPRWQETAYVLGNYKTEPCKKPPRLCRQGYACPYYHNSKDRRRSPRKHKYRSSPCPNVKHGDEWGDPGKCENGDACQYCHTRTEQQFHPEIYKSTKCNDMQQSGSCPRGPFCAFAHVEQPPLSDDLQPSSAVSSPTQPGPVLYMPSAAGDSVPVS
Method: RNA Bind-n-Seq
Molecule type: RNA
Matrix: in vitro
Tested at: not given
Notes: RNA with constant flanks, human-mouse chimeric sites, ends assumed
Relative to: input RNA pool
Reading: higher = stronger binding
Shared flanks, not repeated: GGGAGUUCUACAGUCCGACGAUC … CAACAGAGGAUUGAGCAUCA
Oligonucleotide | bound/input enrichment
CACGUGUCUGCAGUACUUGAUGUGGACUACUCUCCCACUGGGAAGGAAUUUGUGUCUGCCAGCUUUGAUAAAUCUAUUAGAAUCUUUCCUGUGGACAAGAGCCGAAGCAGGGAAGUGUAU | 0.426 ratio
AAAGAAUGGAUAGAGUGUGCACACGGGAUCGGUGGGACCCGGGCGAAGAAAGAGUGCAAGAUAGAGUUCGAUGACUUCGAAGAGUGCUUGCUUCGGUACAAAACGAUGAGGCGAAUGCAU | 0.574 ratio
CAGCCUCAGAGCCCAGACUUCCUGGAUAUUACCAACCCUAAAGCGGUAUUAGAAAAUGCAUUGAGAAACUUCGCCUGUCUGACGACUGGGGAUGUGAUUGCUAUCAACUAUAAUGAAAAG | 0.52 ratio
AGAGCCCAGGACGUUGAUGCUACAAAUCCAAAUUAUGAAAUUAUGUGUAUGAUCAGAGACUUCAGAGGGAGCUUGGAUUACAGACCCCUAACAACAGCAGAUCCUAUUGAUGAACAUAGG | 0.472 ratio
AACAGAUUGUCUUUAAGCAUUCCAAGCGAGAAUGCUGGGGUGAUCAUUGUUGCCCAUGUGCCUUCUGACUGAGCUUUAAUGCUGUUCAUCCUUGAUGCUUUCCUUCACUCCAGAAUUGUU | 0.164 ratio
AGUUCCAAACCACCAUCAGAAAUGAAGAUGAGAUUACCCAGACGAGCCAAAACAGCUGCGCUACAGAAAAGUAAACUUAACCUUGCACCAAUUUCUCAUGAAGAUACAAGUUAAGAGAGC | 0.342 ratio
CCUCUGCCCCGCUCUGCAGCCUGGGGACACUGGGCUGGGACCAGAAUCCAGCUUUCUUUUAAAACUCUCAGUGUAACUUCUUUUUCUGACAUUUCAUUUUUUUUAAAUAGUGUAUUUUUU | 5.32 ratio
UCUGGUCACACUCGUGUGUAUGGUGUUUGCUUUGUGGAUACUUCACUGGGCAAGUUUUUCAUAGGUCAGUUUUCGGAUGACCGCCACUGUUCCAGAUUUAGGACGCUAGUGGCUCACUAU | 0.315 ratio

Sample 3
Target: CCND1, cyclin fold, Cln2 fusion (human)
Method: yeast growth competition, sequencing
Matrix: yeast
Notes: strong parent motif
Relative to: not given
Reading: higher = stronger binding
Parent: viral docking peptide; YKVKRRLVFGADD
Variant | normalised enrichment score
L7M | -0.088
K4W | 0.663
K2Y | 0.982
A11S | 2.55
R6L | 0.684
R6I | 0.651
K2Q | 2.49
F9Y | 0.528
R5N | -0.152
V3R | 0.277
G10K | 1.34
R6V | 1.13
R5T | 0.207

Sample 4
Target: HLA class I histocompatibility antigen, A alpha chain, allele A*25:01 (Homo sapiens, UniProt P04439)
Observed: peptide-MHC binding
Molecule type: peptide
Tested at: concentration not given
Molecule | binding
EDFEIFYNL | inactive
WFLYVSQQI | inactive
TSCAPMMQK | inactive
SLLERGQQLGV | inactive
VVARLGVPY | inactive

Other studies, line by line
Method: cross-linking MS
Matrix: cell fractions
Substance | partner | setting | cross-linked residues
SEPTIN7 (Homo sapiens, UniProt Q16181) | SEPTIN9 (Homo sapiens, UniProt Q9UHD8) | added: DHSO | D74 to E452
NUP214 (Homo sapiens, UniProt P35658) | NUP62 (Homo sapiens, UniProt P37198) | added: DMTMM | E813 to K445
ANKRD17 (Homo sapiens, UniProt O75179) | FRAS1 (Homo sapiens, UniProt Q86XX4) | added: DSSO | K828 to K2217
RPLP2 (Homo sapiens, UniProt P05387) | RPLP0 (Homo sapiens, UniProt P05388) | added: DMTMM | K61 to D271

For quick reference, copied from above (sample 1):
Molecule | lacZ reporter activity
B1 (RNF135 RING domain) | 0
B2 (PRKN RING domain) | 0
B3 (TRIM22 RING domain) | 0
